Results from different studies.
Protocols differ between the studies behind these lines. Numbers after ± are the reported error. In brackets after ≈: the same amount, converted by molar mass.
Chain of UniProt P25929 (whole entry, unmodified, looked up): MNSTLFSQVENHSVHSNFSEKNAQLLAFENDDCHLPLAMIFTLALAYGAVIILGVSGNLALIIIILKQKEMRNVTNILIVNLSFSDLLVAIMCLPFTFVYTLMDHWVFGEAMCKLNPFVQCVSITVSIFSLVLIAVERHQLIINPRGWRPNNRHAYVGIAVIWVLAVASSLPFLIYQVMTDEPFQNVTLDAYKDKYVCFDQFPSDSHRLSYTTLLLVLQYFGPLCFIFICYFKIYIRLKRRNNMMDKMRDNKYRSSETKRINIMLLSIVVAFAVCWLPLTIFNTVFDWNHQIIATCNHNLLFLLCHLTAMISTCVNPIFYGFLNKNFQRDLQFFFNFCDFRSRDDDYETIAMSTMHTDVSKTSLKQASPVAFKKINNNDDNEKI
Chain of UniProt P08684 (whole entry, looked up): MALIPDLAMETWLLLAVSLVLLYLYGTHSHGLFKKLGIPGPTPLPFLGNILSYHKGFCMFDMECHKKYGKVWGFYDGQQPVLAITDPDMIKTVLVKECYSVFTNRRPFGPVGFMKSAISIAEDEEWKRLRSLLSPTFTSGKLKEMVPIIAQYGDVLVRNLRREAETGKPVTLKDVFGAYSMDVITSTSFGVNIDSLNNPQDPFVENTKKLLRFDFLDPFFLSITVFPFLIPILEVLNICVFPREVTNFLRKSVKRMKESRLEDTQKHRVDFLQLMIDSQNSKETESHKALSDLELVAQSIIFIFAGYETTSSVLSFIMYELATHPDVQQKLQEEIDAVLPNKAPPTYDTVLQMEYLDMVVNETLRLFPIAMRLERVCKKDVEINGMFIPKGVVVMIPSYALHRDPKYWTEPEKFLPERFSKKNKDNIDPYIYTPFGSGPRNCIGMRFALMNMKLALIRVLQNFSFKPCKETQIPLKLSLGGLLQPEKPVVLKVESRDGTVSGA

COc1cc(CNC(=O)C[C@H](C)CCC=C(C)C)ccc1OCc1cn(-c2ccc(C#N)cc2)nn1  growth percent (OVCAR-3 ovarian cancer cells; SRB; 10 µM, 48 h): 94%
COc1ccc(NC(=O)COc2ccc(/C=C/C(C)=N/O)cc2OC)cc1  IL-1β expressing cells (SH-SY5Y; flow cytometry; 20 µM, together with: amyloid beta 10 µM): 16.4%
COc1ccc(CC(C)=C(c2ccc(Cl)cc2)c2ccc(OCCCN(C)C)cc2)cc1  growth inhibition (NCI-60 tumour cell lines; 10 µM, mean over cell lines): 31.5%
CSCC[C@H](NC(=O)[C@H](CC(C)C)NC(=O)[C@H](Cc1c[nH]cn1)NC(=O)CNC(=O)[C@@H](NC(=O)[C@H](C)NC(=O)[C@H](Cc1c[nH]c2ccccc12)NC(=O)[C@H](CCC(N)=O)NC(=O)CCOCCOCCOCCOCCNC(=O)CN1CCN(CC(=O)O)CCN(CC(=O)O)CCN(CC(=O)O)CC1)C(C)C)C(N)=O [indium-111 labelled]  intact peptide (radio-HPLC; male Swiss nu/nu mice, blood; intravenous, 1 nmol, 15 min): 1.8 ± 0.6%
CSCC[C@H](NC(=O)[C@H](Cc1c[nH]c2ccccc12)NC(=O)CNC(=O)[C@H](Cc1ccc(O)cc1)NC(=O)[C@H](C)NC(=O)[C@H](CCC(=O)O)NC(=O)[C@H](CCC(=O)O)NC(=O)[C@H](CCC(=O)O)NC(=O)[C@H](CCC(=O)O)NC(=O)[C@H](CCC(=O)O)NC(=O)[C@@H](CCC(=O)O)NC(=O)CN1CCN(CC(=O)O)CCN(CC(=O)O)CCN(CC(=O)O)CC1)C(=O)N[C@@H](CC(=O)O)C(=O)N[C@@H](Cc1ccccc1)C(N)=O [gallium-68 labelled]  tumour uptake (BALB/c nude mice, AR-42J xenograft; intravenous, 0.25 µg, 370 kBq, 1 h): 4.4 ± 1.3 %ID/g
CC/C=C\C/C=C\C/C=C\C/C=C\C/C=C\C/C=C\CCC(=O)Nc1ccn(C2OC(CO)C(O)C2(F)F)c(=O)n1 (stereo not drawn)  TGI (U-251; NCI60 screen): 15200 nM
COc1cc(CNC(=O)C[C@H](C)CCC=C(C)C)ccc1OCc1cn(-c2ccc([N+](=O)[O-])cc2)nn1  growth percent (UACC-257 melanoma cells; SRB; 10 µM, 48 h): 69.4%
[64Cu+2].c1ccc(CNCc2ccc(CN3CCCN4CCNCCCN(CC4)CC3)cc2)nc1  tissue uptake (CXCR4; NOD/SCID mouse, U87 and U87-stb-CXCR4 xenografts, muscle; iv, 90 min, no blocking dose, ex vivo): 0.28 ± 0.04 %ID/g
COc1cc(CNC(=O)C[C@H](C)CCC=C(C)C)ccc1OCc1cn(-c2ccc(Br)cc2)nn1  growth percent (HCC 2998; SRB; 10 µM, 48 h): 95.8%
COc1ccc2cc(NC(=O)c3cc(-c4cccnc4)nc4ccccc34)ccc2c1  Km (Cytochrome P450 3A4 (CYP3A4, Homo sapiens, UniProt P08684); substrate, LC-MS, measured: hydroxylated metabolite M2; baculosomes): 5.3 µM
C(=C/c1ccccc1)/c1ccccc1  lowest effective concentration (HL-60; apoptosis, measured: caspase-3 activity; 24 h, lowest dose with significant induction; baseline: vehicle): 10 µM
CO[C@H]1N(OC)c2ccccc2[C@@]12CN=C(Nc1cc(C(F)(F)F)cc(C(F)(F)F)c1)S2 (relative stereo)  S phase cells (HCT-116; PI flow cytometry; 40 µM, 72 h): 5.71 ± 1.73%
COc1cc(CNC(=O)C[C@H](C)CCC=C(C)C)ccc1OCc1cn(-c2ccc(F)cc2)nn1  growth percent (SF-268 CNS cancer cells; SRB; 10 µM, 48 h): 69.9%
COc1cc([C@@H]2OC[C@@H]3[C@H]2CO[C@H]3c2cc(OC)c(O)c(OC)c2)cc(OC)c1O  glucose consumption (HepG2, palmitic acid-induced insulin resistance; 15 µM, 24 h): 9.76 ± 0.48 mM
CCOC(=O)CNC(=O)/N=C(/N)NCCC[C@@H](NC(=O)C(c1ccccc1)c1ccccc1)C(=O)NCc1ccc(O)cc1  Kb (Neuropeptide Y receptor type 1 (NPY1R, Homo sapiens, UniProt P25929, F286A); antagonist; human cells): 0.29 nM
CC(=O)[O-].O.O.[O-]c1ccc(Br)cc1C=NCCN1CCOCC1.[Zn+2]  inhibition zone diameter (Aspergillus niger; 20 µL of 100 µM per disc): 30 mm
Cc1nccc2c3ccccc3n(Cc3cccnc3)c12  viability inhibition (PC-12; 200 µM, 48 h): 34.3 ± 1.4%
CC[C@H](C)[C@H](NC(=O)[C@@H](NC(=O)[C@@H](N)C(C)C)C(C)C)C(=O)N[C@@H](C)C(=O)O  viability (PC-12; Aβ42-induced neurotoxicity, inhibitor, MTT; concentration not given, 6 h, 37 °C, peptide to Aβ42 1:2, together with: Aβ42 2 µM; baseline: untreated cells): 90.5%
CSC(=NN=C(C)c1ccc(S(=O)(=O)N2CCC(C)CC2)cc1)N(C)C  cells in %G0-G1 (HepG2; flow cytometry; 3.31 µM, 72 h): 35.3%
O=[N+]([O-])c1ccc(C=[N+]2N=C(Nc3ccccc3)[S][Pd-]2([Cl])[Cl])s1  cytotoxic concentration (HEL human lung fibroblasts; altered cell morphology, microscopy; confluent cultures): ≥ 100 µM
COc1cc(CNC(=O)C[C@H](C)CCC=C(C)C)ccc1OCc1cn(-c2cccc([N+](=O)[O-])c2)nn1  growth percent (OVCAR-8 ovarian cancer cells; SRB; 10 µM, 48 h): 23.7%
Nc1ncnc2c1c(-c1ccc(C(F)(F)F)c(Cl)c1)cn2[C@@H]1O[C@H](CO)[C@@H](O)[C@H]1O  EC50 (HEK; cytotoxicity): > 200000 nM
[64Cu+2].c1cnc(CNCc2ccc(CN3CCCN4CCNCCCN(CC4)CC3)cc2)nc1  tissue uptake (CXCR4; NOD/SCID mouse, U87 and U87-stb-CXCR4 xenografts, heart; iv, 90 min, no blocking dose, ex vivo): 0.81 ± 0.06 %ID/g
CC(=O)O[C@H]1CC[C@]2(C)[C@H]3C(=O)C=C4[C@@H]5C[C@@](C)(C(=O)OCc6ccccc6)CC[C@]5(C)CC[C@@]4(C)[C@]3(C)CC[C@H]2C1(C)C  MDC fluorescence intensity (HepG2; autophagy, flow cytometry; 4 µM, 24 h, unit not given; baseline: untreated): 1460
Cc1nc(C)c(C=[N+]([O-])C(C)(C)C)nc1C  protein level increase (Western blot, measured: GSK-3β phospho-Ser9; mouse, MPTP model; 30 mg/kg): 120%
COc1cc(CNC(=O)C[C@H](C)CCC=C(C)C)ccc1OCc1cn(-c2ccccc2Cl)nn1  growth percent (HCT-15; SRB; 10 µM, 48 h): 53.8%
Cc1ccc(C(C)C)cc1.[Cl-].[Cl][Ru+].[Ru+].c1ccc(-c2cn(CCCCOc3ccccc3-c3nc4ccccc4s3)nn2)nc1  late apoptotic cells (MCF7; annexin V/PI flow cytometry; 8 µM, 24 h): 15.3%
CCC(=O)NCCNC(=O)/N=C(/N)NCCC[C@@H](NC(=O)C(c1ccccc1)c1ccccc1)C(=O)NCc1ccc(O)cc1  Kb (Neuropeptide Y receptor type 1 (NPY1R, Homo sapiens, UniProt P25929, Q120N); antagonist; human cells): 0.51 nM
CC(Cc1ccc(Cl)cc1)=C(c1ccc(Cl)cc1)c1ccc(OCCN2CCCCC2)cc1  growth inhibition (NCI-60 tumour cell lines; 10 µM, mean over cell lines): 10.9%
CCCCC/C=C/C(=O)CCc1ccc(O)c(OC)c1  IC50 (mouse mAb 1-G12; antibody binding, indirect competitive ELISA): 1.85 µg/mL (≈ 6.69 µM)

For quick reference, copied from above:
COc1cc(CNC(=O)C[C@H](C)CCC=C(C)C)ccc1OCc1cn(-c2ccc(C#N)cc2)nn1  growth percent (OVCAR-3 ovarian cancer cells; SRB; 10 µM, 48 h): 94%
COc1cc(CNC(=O)C[C@H](C)CCC=C(C)C)ccc1OCc1cn(-c2ccc(F)cc2)nn1  growth percent (SF-268 CNS cancer cells; SRB; 10 µM, 48 h): 69.9%
COc1ccc(NC(=O)COc2ccc(/C=C/C(C)=N/O)cc2OC)cc1  IL-1β expressing cells (SH-SY5Y; flow cytometry; 20 µM, together with: amyloid beta 10 µM): 16.4%
